# Assay results of several laboratories.
# Parts stem from different laboratories: compare values within a part only. Substitutions count along the parent as printed.
# UniProt P06493, sequence (whole entry, looked up): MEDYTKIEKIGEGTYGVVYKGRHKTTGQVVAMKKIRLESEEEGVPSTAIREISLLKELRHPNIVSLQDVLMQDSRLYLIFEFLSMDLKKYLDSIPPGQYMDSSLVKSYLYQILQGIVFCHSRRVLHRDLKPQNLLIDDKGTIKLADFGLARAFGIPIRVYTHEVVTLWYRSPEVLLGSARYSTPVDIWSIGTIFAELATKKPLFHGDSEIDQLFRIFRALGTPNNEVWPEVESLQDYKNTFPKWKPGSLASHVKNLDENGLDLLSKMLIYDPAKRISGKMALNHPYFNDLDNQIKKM
# UniProt Q05940, sequence (whole entry, looked up): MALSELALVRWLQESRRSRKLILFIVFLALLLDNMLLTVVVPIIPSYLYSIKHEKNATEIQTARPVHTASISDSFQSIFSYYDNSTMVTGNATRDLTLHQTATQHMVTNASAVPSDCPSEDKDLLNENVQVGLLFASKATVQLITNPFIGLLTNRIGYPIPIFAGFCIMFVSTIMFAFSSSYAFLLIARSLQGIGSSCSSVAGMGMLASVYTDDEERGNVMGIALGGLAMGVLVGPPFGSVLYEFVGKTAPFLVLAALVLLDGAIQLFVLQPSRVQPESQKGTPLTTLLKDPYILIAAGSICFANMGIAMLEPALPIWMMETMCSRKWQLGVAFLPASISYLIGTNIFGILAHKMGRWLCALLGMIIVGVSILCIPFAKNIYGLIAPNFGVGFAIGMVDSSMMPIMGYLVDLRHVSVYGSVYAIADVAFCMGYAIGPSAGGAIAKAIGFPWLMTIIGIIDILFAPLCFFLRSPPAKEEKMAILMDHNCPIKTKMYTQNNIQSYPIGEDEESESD

# Study 1 — target: CCNF, cyclin fold, Cln2 fusion (human); method: yeast growth competition, sequencing; matrix: yeast; notes: strong parent motif; reference: not given; reading: higher = stronger binding; starting sequence: viral docking peptide; TSVRRALFTGGSD
Variant,normalised enrichment score
G10M,8.35
R5S,0.481
R5C,1.86
L7M,0.628
L7R,0.664
V3C,7.85
R4G,2.29
G11F,8.83

# Study 2 — target: inorganic phosphate, free oxyanion; method: microfluidic competitive inhibition; matrix: in vitro, cell-free expressed; concentration: not given; reading: lower = stronger binding
# Notes: derived from inhibition constants, unchanged parent 615000 nM
# Starting sequence: PafA, mature enzyme, eGFP fusion (Elizabethkingia meningoseptica, UniProt Q9KJX5); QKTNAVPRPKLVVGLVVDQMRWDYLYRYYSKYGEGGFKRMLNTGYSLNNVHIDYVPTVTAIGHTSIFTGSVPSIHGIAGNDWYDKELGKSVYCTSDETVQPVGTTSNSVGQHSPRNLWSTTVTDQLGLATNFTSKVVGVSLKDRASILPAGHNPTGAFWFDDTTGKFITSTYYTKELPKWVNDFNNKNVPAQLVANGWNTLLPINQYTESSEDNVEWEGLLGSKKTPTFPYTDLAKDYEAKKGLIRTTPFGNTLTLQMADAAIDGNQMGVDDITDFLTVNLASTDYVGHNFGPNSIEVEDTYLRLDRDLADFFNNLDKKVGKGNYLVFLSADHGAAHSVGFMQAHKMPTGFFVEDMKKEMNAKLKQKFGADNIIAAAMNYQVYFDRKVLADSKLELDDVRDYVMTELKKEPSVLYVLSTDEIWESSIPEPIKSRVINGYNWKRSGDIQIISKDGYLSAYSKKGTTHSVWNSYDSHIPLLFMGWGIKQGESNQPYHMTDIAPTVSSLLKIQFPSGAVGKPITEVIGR
Variant,phosphate dissociation constant [µM]
S425V,643
L414V,595
N205V,691
I263V,585
N116G,578
E395V,624
F480V,415
P493G,593

# Single results of other studies
# DRD5: D(1B) dopamine receptor (DRD5, Homo sapiens, UniProt P21918)
Substance,target,observed,mode,concentration,reference,quantity,result
c1ccc(N2CCN(Cc3nc4ccccc4[nH]3)CC2)nc1,DRD5,ligand displacement,,10 µM,,inhibition,7.01%
O=C1NC(=O)c2c1c1c3ccccc3n3c1c1c2c2ccccc2n1[C@H]1CC[C@@H]3O1,"Cyclin-dependent kinase 1, with cyclin A (CDK1, Homo sapiens, UniProt P06493)",enzyme activity,inhibitor,0.5 µM,control,remaining activity,61.7%
mitragynine,"SLC18A2 (Homo sapiens, UniProt Q05940)",,,,,IC50,21.5 µM
Cn1cc(Cl)c2c(Oc3c(F)cc(Nc4cc(Cl)nc(N)n4)cc3F)ccnc21,DRD5,ligand displacement,,10 µM,,inhibition,9.8%

# Repeated from above (single results of other studies):
Substance,target,observed,mode,concentration,reference,quantity,result
O=C1NC(=O)c2c1c1c3ccccc3n3c1c1c2c2ccccc2n1[C@H]1CC[C@@H]3O1,"Cyclin-dependent kinase 1, with cyclin A (CDK1, Homo sapiens, UniProt P06493)",enzyme activity,inhibitor,0.5 µM,control,remaining activity,61.7%
mitragynine,"SLC18A2 (Homo sapiens, UniProt Q05940)",,,,,IC50,21.5 µM
Cn1cc(Cl)c2c(Oc3c(F)cc(Nc4cc(Cl)nc(N)n4)cc3F)ccnc21,DRD5,ligand displacement,,10 µM,,inhibition,9.8%
